Measured values pooled from the literature.
Each line is one published result; not all experiments were run side by side.
Organism: Staphylococcus aureus

| Structure (SMILES) | assay | test system | setting | MIC |
| --- | --- | --- | --- | --- |
| S=c1n(CN2CCN(c3ccccc3)CC2)nc(C23CC4CC(CC(C4)C2)C3)n1-c1ccccc1 | two-fold dilution | IFO 3060 | 24 h, 36 °C | 8 µg/mL |
| CN1/C(=C/C=C/c2cc(-c3ccccc3)cc(-c3ccccc3)[o+]2)C(C)(C)c2ccccc21 | – | – | – | 0.5 µg/mL |
| CCC1(C)CCN(Cc2cc(N(C)C)c3c(c2O)C(=O)C2=C(O)[C@]4(O)C(=O)C(C(N)=O)=C(O)[C@@H](N(C)C)[C@@H]4C[C@@H]2C3)CC1 | – | MRSA 5, Tet M ribosome protection | – | 1 µg/mL |
| C=CCO[C@H]1[C@H](O)[C@@H](N)[C@@H](O[C@H]2[C@H](O[C@@H]3O[C@H](CO)[C@@H](O[C@H]4O[C@@H](CN)[C@@H](O)[C@H](O)[C@H]4N)[C@H]3O)[C@@H](O)[C@H](N)C[C@@H]2N)O[C@@H]1CO | broth microdilution | MRSA isolate AG 039 | – | 16 µg/mL |
| CN(C)c1cc(CNCc2ccccc2)c(O)c2c1C[C@H]1C[C@H]3[C@H](N(C)C)C(O)=C(C(N)=O)C(=O)[C@@]3(O)C(O)=C1C2=O | microbial growth | MRSA | – | 0.25 µg/mL |
| C/C(=N\Nc1nc(C)cs1)c1ccc2c(c1)sc1nc(=O)c(C#N)cn12 | microbial growth, broth dilution | – | – | < 39 µg/mL |
| c1ccc(CN2CCOCCOCCN(CCCCCCCCCCN3CCOCCOCCN(CCCCCCCCCCN4CCOCCOCCN(Cc5ccccc5)CCOCCOCC4)CCOCCOCC3)CCOCCOCC2)cc1 | microbial growth | MRSA USA300 | drug-resistant strain | 6 µM |
| CN(C)c1cc(CNCC2CCCCC2)c(O)c2c1C[C@H]1C[C@H]3[C@H](N(C)C)C(O)=C(C(N)=O)C(=O)[C@@]3(O)C(O)=C1C2=O | – | MRSA 5, Tet M, 50% mouse serum | – | 16 µg/mL |
| CCc1nc(N)nc(N)c1C#CC(C)c1cc(-c2cc(C)nc(C)c2)ccc1OC(F)(F)F (racemic) | broth microdilution | ATCC 43300 | 18 h, 37 °C | 0.625 µg/mL |
| CCS(=O)(=O)[C@H]1[C@H](O)[C@@H](N)[C@@H](O[C@H]2[C@H](O[C@@H]3O[C@H](CO)[C@@H](O[C@H]4O[C@@H](CN)[C@@H](O)[C@H](O)[C@H]4N)[C@H]3O)[C@@H](O)[C@H](N)C[C@@H]2N)O[C@@H]1CO | – | methicillin-resistant | – | > 64 µg/mL |
| CCCCCCCCCc1nc2cc(F)c(F)cc2c(=O)n1OC | broth microdilution | RN6390B | – | > 100 µM |
| CNC(CC(C)C)C(=O)NC1C(=O)NC(CC(N)=O)C(=O)NC2C(=O)NC3C(=O)NC(C(=O)NC(C(=O)O)c4cc(O)cc(O)c4-c4cc3ccc4O)C(O)c3ccc(c(Cl)c3)Oc3cc2cc(c3OC2OC(CO)C(O)C(O)C2OC2CC(C)(NC(=O)CCCC[n+]3ccccc3)C(O)C(C)O2)Oc2ccc(cc2Cl)C1O (stereo not drawn) | agar dilution | MRSA clinical isolate MRSA4 | – | 64 µg/mL |
| CC1=C[C@@]2(C)C(=C(C)[C@H]3[C@@H]4C[C@H](C)C[C@H](C)[C@H]4[C@H]4Oc5ccc(cc5)C[C@]5(O)NC(=O)[C@]6(O[C@H]65)C(=O)[C@@H]2[C@@H]43)[C@H]1C | microbial growth, broth dilution | ATCC29213 | – | 3.1 µM |
| CC(C)C[C@H](NC(=O)[C@H](CC(N)=O)NC(=O)[C@H](CCCNC(=N)N)NC(=O)[C@@H](CC(C)C)NC(=O)[C@H](Cc1ccccc1)NC(=O)[C@H](CC(=O)O)NC(=O)[C@H](CCCCN)NC(=O)[C@@H](CC(C)C)NC(=O)[C@H](CCCNC(=N)N)NC(=O)[C@H](CCC(N)=O)NC(=O)[C@@H](NC(=O)[C@@H](CC(C)C)NC(=O)[C@H](CCCNC(=N)N)NC(=O)[C@H](CCCCN)NC(=O)[C@H](Cc1ccc(-c2ccccc2)cc1)NC(=O)CN)C(C)C)C(=O)N[C@H](C(N)=O)C(C)C | broth microdilution | USA300 LAC, MRSA | – | 12.5 µM |
| Oc1c(Br)cc(Br)c2nc3cc(I)ccc3nc12 | broth microdilution | MRSA 1707 | 16 h, 37 °C | 0.08 µM |

A few entries again:
| Structure (SMILES) | assay | test system | setting | MIC |
| --- | --- | --- | --- | --- |
| c1ccc(CN2CCOCCOCCN(CCCCCCCCCCN3CCOCCOCCN(CCCCCCCCCCN4CCOCCOCCN(Cc5ccccc5)CCOCCOCC4)CCOCCOCC3)CCOCCOCC2)cc1 | microbial growth | MRSA USA300 | drug-resistant strain | 6 µM |
| CNC(CC(C)C)C(=O)NC1C(=O)NC(CC(N)=O)C(=O)NC2C(=O)NC3C(=O)NC(C(=O)NC(C(=O)O)c4cc(O)cc(O)c4-c4cc3ccc4O)C(O)c3ccc(c(Cl)c3)Oc3cc2cc(c3OC2OC(CO)C(O)C(O)C2OC2CC(C)(NC(=O)CCCC[n+]3ccccc3)C(O)C(C)O2)Oc2ccc(cc2Cl)C1O (stereo not drawn) | agar dilution | MRSA clinical isolate MRSA4 | – | 64 µg/mL |
